{"data": "Measurements collected from several papers", "note": "Every numbered part comes from another study and shows a few of its results, in no order."}
{"data": "Study 1", "target": "Histone acetyltransferase KAT6A, both winged helices, GST fusion (KAT6A, Homo sapiens, UniProt Q92794, residues 1-181)", "technique": "protein binding microarray", "molecule type": "double-stranded DNA, one strand shown", "matrix": "in vitro", "concentration": "not given", "setting": "8-mer, flanks averaged, mean of 2 arrays, mostly near background", "reference": "not given", "reading": "higher = stronger binding", "Construct (chain)": "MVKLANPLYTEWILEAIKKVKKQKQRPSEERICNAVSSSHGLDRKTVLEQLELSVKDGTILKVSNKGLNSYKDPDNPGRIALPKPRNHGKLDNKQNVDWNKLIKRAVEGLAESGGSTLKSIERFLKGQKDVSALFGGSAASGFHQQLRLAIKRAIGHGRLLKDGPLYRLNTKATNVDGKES"}
{"Sequence": "AATAGGCT", "E-score": -0.0739}
{"Sequence": "ATGCCAAA", "E-score": -0.262}
{"Sequence": "CGCTAGTC", "E-score": 0.0863}
{"Sequence": "ATATAGTG", "E-score": 0.022}
{"Sequence": "AATTCTGC", "E-score": 0.0455}
{"Sequence": "ACACAGCT", "E-score": -0.253}
{"Sequence": "CATTCGAC", "E-score": 0.0116}
{"Sequence": "AAGTGGGA", "E-score": -0.133}
{"Sequence": "CATCCGTA", "E-score": 0.22}
{"Sequence": "AAGGCCTA", "E-score": -0.145}
{"Sequence": "ACAATGAG", "E-score": -0.219}
{"Sequence": "CAACTATG", "E-score": -0.0305}
{"Sequence": "ATGCGAAC", "E-score": -0.00174}
{"Sequence": "CATCCTTC", "E-score": -0.0921}
{"Sequence": "ACGGCTAG", "E-score": 0.281}
{"Sequence": "CTGGCACC", "E-score": -0.169}
{"Sequence": "AACTACTT", "E-score": -0.12}
{"Sequence": "GCTTCTCC", "E-score": -0.0178}
{"data": "Study 2", "target": "Prothrombin, mature alpha-thrombin (F2, Homo sapiens, UniProt P00734)", "technique": "aptamer microarray, sandwich", "molecule type": "DNA with 2'F-ANA", "matrix": "in vitro", "concentration": "200 nM", "setting": "whole 15-mer aptamer, many near background", "together with": "Cy3 exosite-II aptamer, 400 nM", "reading": "higher = stronger binding", "sequence": "GGTTGGTGTGGTTGG"}
{"Modification": "2'F-ANA at 1 3 4 5 6 7 8 10 11 12 15", "mean fluorescence intensity [a.u.]": 48.3}
{"Modification": "2'F-ANA at 1 6 9 12 13", "mean fluorescence intensity [a.u.]": 208}
{"Modification": "2'F-ANA at 1 3 4 5 6 7 11 12 13 14 15", "mean fluorescence intensity [a.u.]": 46.5}
{"Modification": "2'F-ANA at 1 2 5 6 8 12 14", "mean fluorescence intensity [a.u.]": 56.9}
{"Modification": "2'F-ANA at 1 2 4 5 6 7 8 12 13 14 15", "mean fluorescence intensity [a.u.]": 107}
{"Modification": "2'F-ANA at 1 3 5 8 13 15", "mean fluorescence intensity [a.u.]": 60.2}
{"Modification": "2'F-ANA at 4 10 11 13", "mean fluorescence intensity [a.u.]": 69.8}
{"Modification": "2'F-ANA at 1 4 7 9 10 12 13", "mean fluorescence intensity [a.u.]": 53.6}
{"Modification": "2'F-ANA at 6 12 14", "mean fluorescence intensity [a.u.]": 226}
{"Modification": "2'F-ANA at 1 2 3 6 8 9 11 12", "mean fluorescence intensity [a.u.]": 367}
{"Modification": "2'F-ANA at 1 4 8 10 14 15", "mean fluorescence intensity [a.u.]": 60}
{"Modification": "2'F-ANA at 2 4 5 6 7 11 12 15", "mean fluorescence intensity [a.u.]": 89.8}
{"Modification": "2'F-ANA at 2 3 4 5 8 10 11 12 14", "mean fluorescence intensity [a.u.]": 50.9}
{"Modification": "2'F-ANA at 1 2 4 6 8 9 10 12 14 15", "mean fluorescence intensity [a.u.]": 159}
{"data": "Study 3", "target": "Interferon regulatory factor 5, full length, phosphomimetic (IRF5, Homo sapiens, UniProt Q13568-2, residues 1-514, K96S/S451D/S453D/S456D/S462D)", "technique": "protein-binding microarray", "molecule type": "double-stranded DNA, one strand shown", "matrix": "in vitro", "concentration": "250 nM", "setting": "60-bp whole probe", "together with": "salmon DNA 0.4 mg/ml", "reference": "random background probes", "reading": "higher = stronger binding", "constant ends, left off below": "GCCTAGCAC … GTCTTGATTCGCTTGACGCTGCTG"}
{"Sequence": "GACGATTTCGGGTATCGAGACGTGCTA", "log fluorescence [z-score]": 4.84}
{"Sequence": "GACGGTATCCTTCGCCTGACGTGCTAG", "log fluorescence [z-score]": 0.203}
{"Sequence": "GACGGTATCGGGTATAGGGACGTGCTA", "log fluorescence [z-score]": 2.71}
{"Sequence": "TACGGTCTCCTACTGCTGACGTGCTAG", "log fluorescence [z-score]": -0.245}
{"Sequence": "TTAGGTATCGAGTTTCGGTTAGTGCTA", "log fluorescence [z-score]": 9.56}
{"Sequence": "TCATACATGGGTATAGAACTGTGCTAG", "log fluorescence [z-score]": -0.1}
{"Sequence": "TTAGAACTGAGTCTCGATAAGTGCTAG", "log fluorescence [z-score]": 0.746}
{"Sequence": "GACCATTCCAGTTTCGAGACGTGCTAG", "log fluorescence [z-score]": 5.41}
{"data": "Other studies, line by line"}
{"Molecule": "PhoQ, residues 284 288 289 292 302 303 SVHLDV", "target": "PhoP, residues 12 14 15 18 19 IQFRS (Escherichia coli, UniProt P23836)", "test": "Sort-seq, measured: YFP reporter", "test system": "E. coli", "setting": "PhoQ-PhoP variant library, together with: 10 µM Mg2+", "scale": "reference: high Mg2+ state, higher = stronger signaling", "endpoint": "fold induction", "value": 7.91}
{"note": "Some of these lines once more (study 2):"}
{"Modification": "2'F-ANA at 2 4 5 6 7 11 12 15", "mean fluorescence intensity [a.u.]": 89.8}
{"Modification": "2'F-ANA at 1 3 5 8 13 15", "mean fluorescence intensity [a.u.]": 60.2}
{"Modification": "2'F-ANA at 1 3 4 5 6 7 11 12 13 14 15", "mean fluorescence intensity [a.u.]": 46.5}
{"Modification": "2'F-ANA at 1 3 4 5 6 7 8 10 11 12 15", "mean fluorescence intensity [a.u.]": 48.3}
{"Modification": "2'F-ANA at 6 12 14", "mean fluorescence intensity [a.u.]": 226}
{"Modification": "2'F-ANA at 1 2 4 6 8 9 10 12 14 15", "mean fluorescence intensity [a.u.]": 159}
